Experimental data pooled from the literature.
Lines come from different studies, so protocols differ.
Organism: Klebsiella pneumoniae

CC[C@H](C)[C@H](NC(=O)[C@@H](CCCNC(=N)N)NC(=O)[C@H](CCCNC(=N)N)NC(=O)[C@@H]1CCCN1C(=O)[C@@H]1CCCN1C(=O)[C@H](CCCCNC(=N)N)NC(=O)[C@@H]1CCCN1C(=O)[C@H](CCCNC(=N)N)NC(=O)[C@@H]1CCCN1C(=O)[C@H](CC(C)C)NC(=O)[C@H](Cc1ccc(O)cc1)NC(=O)[C@@H]1CCCN1C(=O)[C@@H]1CCCN1C(=O)[C@H](CCCCN)NC(=O)[C@H](CC(=O)O)NC(=O)[C@@H](N)C(C)C)C(=O)N[C@@H](Cc1ccc(O)cc1)C(=O)N[C@@H](CC(N)=O)C(=O)N[C@H](CCCNC(=N)N)C(N)=O
MIC (broth microdilution; DSM 681; 18 h, 37 °C, 25% MHB2): 4 µg/mL

C=CCO/N=C(\C(=O)N[C@@H]1C(=O)N(S(=O)(=O)O)[C@H]1C)c1csc(N)n1
MIC (agar dilution; 2146 NDM-1): > 128 µg/mL

c1ccc2c(c1)nc(CNCC13CC4CC(CC(C4)C1)C3)n2CC1CCCCC1
MIC (ATCC 700603): > 128 µg/mL

CC[C@H](C)[C@H](NC(=O)[C@@H](CCCNC(=N)N)NC(=O)[C@H](CCCNC(=N)N)NC(=O)[C@H](C)NC(=O)[C@H](Cc1c[nH]c2ccccc12)NC(=O)[C@H](CCCNC(=N)N)NC(=O)[C@@H]1CCCN1C(=O)[C@H](CCCNC(=N)N)NC(=O)[C@@H]1CCCN1C(=O)[C@H](CC(C)C)NC(=O)[C@H](Cc1ccc(O)cc1)NC(=O)[C@@H]1CCCN1C(=O)[C@@H]1CCCN1C(=O)[C@H](CCCCN)NC(=O)[C@H](CC(=O)O)NC(=O)[C@@H](N)C(C)C)C(=O)N[C@@H](Cc1ccc(O)cc1)C(=O)N[C@@H](CC(N)=O)C(=O)N[C@H](CCCNC(=N)N)C(N)=O
MIC (broth microdilution; DSM 681; 18 h, 37 °C, 25% MHB2): 4 µg/mL

CCCCCCCC(=O)N[C@@H](CCN)C(=O)N[C@H](C(=O)N[C@@H](CCN)C(=O)N[C@H]1CCNC(=O)[C@H]([C@@H](C)O)NC(=O)[C@H](CCN)NC(=O)[C@H](CCN)NC(=O)[C@H](CCCCCC)NC(=O)[C@@H](Cc2ccccc2)NC(=O)[C@H](CCN)NC1=O)[C@@H](C)O
MIC (broth microdilution; ATCC 19606): 0.25 to 0.5 µg/mL

COc1ccc2ccc(O)c(/C=N/[C@H]3CCCC[C@H]3/N=C/c3c(C)cccc3O)c2c1
MIC (bacterial growth, broth microdilution; carbapenem-resistant clinical isolate): > 40 µM

CC1(C)C(NC(=O)C(=NOCC(=O)N2CC3CCCC3C2C(=O)O)c2csc(N)n2)C(=O)N1OS(=O)(=O)O (stereo not drawn)
MIC (agar dilution; 09-20, NDM-1): 4 µg/mL

N=C(N)NCCC[C@@H]1NC(=O)[C@H](CCCNC(=N)N)NC(=O)[C@@H](CCCNC(=N)N)NC(=O)[C@@H](CCCNC(=N)N)NC(=O)[C@@H](C(c2ccccc2)c2ccccc2)NC(=O)[C@H](Cc2c[nH]c3ccccc23)NC(=O)[C@@H](C(c2ccccc2)c2ccccc2)NC1=O
MIC (1188718, multidrug-resistant): > 64 µg/mL

CCn1c(-c2ccc(F)cc2)c(-c2ccc(F)cc2)n(CC)c1=[Se]
MIC (broth microdilution; carbapenem-resistant BAA-1705; 24 h): > 40 µM
